Published values gathered from unrelated publications.
A part holds a random share of what one study measured.

Block 1
Target: Histone acetyltransferase KAT6A, winged helix 2, GST fusion (KAT6A, Homo sapiens, UniProt Q92794, residues 85-181)
Method: protein binding microarray
Form: double-stranded DNA, one strand shown
Sample: in vitro
Tested at: not given
Setting: 8-mer, flanks averaged, mean of 2 arrays, mostly near background
Baseline: not given
Reading: higher = stronger binding
Target sequence (chain): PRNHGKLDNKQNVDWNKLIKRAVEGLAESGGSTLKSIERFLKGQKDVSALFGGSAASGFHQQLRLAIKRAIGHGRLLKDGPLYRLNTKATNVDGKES
Sequence | E-score
ATTCCCTA | 0.052
GGTGCGCA | 0.194
CAGCGGTA | 0.096
ACATCAAT | -0.175
GCGTTACC | -0.0759
AAGCTGTG | 0.0361
CGGAAATC | 0.0814
CGAGCCTA | 0.00677
CCACGTAA | -0.261
AGCTTCTC | -0.17
CGTCACAG | -0.0972
ACCAGCTC | 0.127
CGCGAATC | 0.0649
ATAAAGAT | 0.16
AACAGCAG | 0.148
AGGCTGCG | 0.118
TATCAGGA | 0.15
GTTAGGAA | -0.0965
ACATACAG | -0.142
ACTTTCGC | -0.0926
GATTAGCC | 0.068
CGCTATAG | -0.255
CCGGTGGA | -0.0128
AACTCTAT | -0.0122
ATTAGCGC | -0.0138

Block 2
Target: RING finger protein unkempt homolog, zinc fingers 1-6, GST-SBP tag (UNK, Homo sapiens, UniProt Q9C0B0, residues 30-357)
UniProt Q9C0B0, sequence (30-357, looked up): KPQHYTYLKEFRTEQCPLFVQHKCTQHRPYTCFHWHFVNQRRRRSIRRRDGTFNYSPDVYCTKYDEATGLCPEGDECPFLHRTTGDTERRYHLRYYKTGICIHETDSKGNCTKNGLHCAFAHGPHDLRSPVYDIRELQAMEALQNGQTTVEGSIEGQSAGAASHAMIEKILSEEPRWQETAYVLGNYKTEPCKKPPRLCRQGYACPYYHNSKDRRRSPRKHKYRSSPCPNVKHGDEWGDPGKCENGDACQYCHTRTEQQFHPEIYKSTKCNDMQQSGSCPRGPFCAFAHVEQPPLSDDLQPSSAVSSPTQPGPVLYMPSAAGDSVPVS
Method: RNA Bind-n-Seq
Form: RNA
Sample: in vitro
Tested at: not given
Setting: RNA with constant flanks, human and mouse sites, ends assumed
Baseline: input RNA pool
Reading: higher = stronger binding
Constant ends, left off below: GGGAGUUCUACAGUCCGACGAUC … CAACAGAGGAUUGAGCAUCA
Sequence | bound/input enrichment
AUUUAAAAUGUAGUUAGUUAUAUUUAAUGACCUCAUUCCUAAGUUCCUUUUUCGUUAAUGUAGCUUUCAUUUCUGUUAUUGCUGUUUGAAUAAUAUGAUUAAAUAGAAGGUUUGUGCCAG | 11.9 ratio
AAUCCGUAUGUUUAUACUUCUAAAUCUGCCUGAGUGACCUUGAAAAGGGAACCAGUGUGUUUAGGAGAAAAAAGCAACAGGAUACAAACCAAAGUCUUUUAUAAUUGUGGCAAGAGUUGA | 0.161 ratio
ACUAAAAGCAAGUGGGGAAUGAUUCCCCGGGGGCCAGCAUCUCAAUUUUAUAUUACCCCCAGUACAUCCCUAAGUCCUCGACAGAGUGGACCACAGUGGAAAGGCCCCAAACCAGCUUUU | 0.226 ratio
AGUGGUGUUGUACAUGAAAUUGGACAUGGGAUAGCAGCUAUUAGGGAACAAGUUCGAUUUAAUGGCUUUGGGAUUUUUCUCUUCAUUAUUUAUCCUGGAGCAUUUGUUGAUCUGUUCACC | 0.319 ratio
UGUUUUGCACGGAUGGUUGGAAAUAGUGGAAAAGUCAUUGGAAUUGAUCACAUUAAAGAACUAGUAGAUGACUCAAUAACUAAUGUCAAAAAGGAUGACCCAAUGCUCCUGUCCUCGGGG | 0.183 ratio
GGACCGUGCCCUAGAAUUUGCCCCUGCCUGCCAUCGCUUCAAAAUCCUCAAGGCAGAAUGUUUAGCAAUGCUGGGUCGUUAUCCAGAAGCACAGUCUGUGGCUAGUGACAUUCUACGAAU | 0.292 ratio
GCAGUUAUAUGUGGAAACACUGGUAAUUCUUUCCACAGUGUUGUUUUGGAUAAUCUGUUCUAGUAUAUUUAACUAAUUGUAUGGUGGACCUGUACUCUGAUACACAUCGAAUCAGUCAAU | 2.66 ratio
AUCCGGGAGAAGCUGGGCUCGGGUGCCUUCUCUGAGGUGAUGCUGGCCCAGGAAAGGGGCUCUGCUCAUCUUGUGGCCCUCAAGUGCAUUCCCAAGAAAGCACUUCGGGGCAAGGAGGCC | 0.321 ratio
AUGACAAAACCAUCUGAGAAGGAAUCUGAACAGCCAGCAAAAGCCACUUUUGCCUUUGGAGCUCAAACUAGUACUACAGCUGAUCAAGGUGCAGCAAAGCCAGUUUUUAGUUUCUUGAAC | 0.314 ratio
AUGAAGCCAAAUAUUGAACCUCCUGAGAAUGUGGAGUGGAGUGGUGCUGAAGCCUCAAUGUUUAGAGUCCUCAUUGGCACUUACUAUGACAAUUUCUGUGCCAUUGCUAGGUUAAUUGGG | 0.457 ratio
GAGAGCCGAGGGCCAGGCUCCCCGCACCCUGCCCGCCGCCCCGGGGACGGCCCGGCCAGGCGGCCCCGACGUCGCCAUGGAAACAGCCGGGGCGCGGGCGGCGCCGCGGUCGCCCGGGCG | 1.32 ratio

Block 3
Target: Interferon regulatory factor 3, full length, phosphomimetic (IRF3, Homo sapiens, UniProt Q14653, residues 1-427, S386D/S396D/S398D/S402D/T404D/S405D)
Method: protein-binding microarray
Form: double-stranded DNA, one strand shown
Sample: in vitro
Tested at: 2540 nM top
Setting: 60-bp whole probe
Added: salmon DNA 0.4 mg/ml
Baseline: random background probes
Reading: higher = stronger binding
Constant ends, left off below: GCCTAGCAC … GTCTTGATTCGCTTGACGCTGCTG
Construct (chain): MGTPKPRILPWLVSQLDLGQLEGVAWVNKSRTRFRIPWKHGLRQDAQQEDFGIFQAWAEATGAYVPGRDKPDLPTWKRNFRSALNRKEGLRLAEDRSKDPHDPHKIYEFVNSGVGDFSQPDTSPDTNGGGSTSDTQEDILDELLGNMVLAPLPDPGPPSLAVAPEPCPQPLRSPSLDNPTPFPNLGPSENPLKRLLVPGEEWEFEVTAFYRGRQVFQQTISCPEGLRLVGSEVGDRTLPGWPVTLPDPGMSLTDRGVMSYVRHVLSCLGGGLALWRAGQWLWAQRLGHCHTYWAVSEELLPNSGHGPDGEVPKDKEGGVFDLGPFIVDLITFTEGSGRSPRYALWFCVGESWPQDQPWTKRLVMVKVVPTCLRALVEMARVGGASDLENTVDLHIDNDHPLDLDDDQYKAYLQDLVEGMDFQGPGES
Sequence | fitted relative affinity [z-score]
TTAGATATCGGGTATGGATTAGTGCTA | -0.0528
TCACATTTTGTTTTTCAACTGTGCTAG | 2.09
GACCATTTCGGGACTGGAGACGTGCTA | 2.22
TTAGGTTTCCTTCTCCTGTAGTGCTAG | 10.3
GAGGATATCAGTATCGAGACGTGCTAG | 0.819
GGGTCTTCAGGTTCTCCCCCAGTGCTA | -0.494
TTAGGTTTCCCTATCCTTTAGTGCTAG | 7.14
GACGGTATGGGTCTCGGGACGTGCTAG | -0.482
TCATATTAAAATTTAATACTGTGCTAG | 0.751
GACGGTTTCGACCTTCGGGACGTGCTA | 3.56
TTAGGACTGCTATTGCTTTAGTGCTAG | -0.531
TCATGACTCTGCCTCTAACTGTGCTAG | -0.705
GTGGCTCACACCTGTCATCCCGTGCTA | -0.687
GACGGTATCGGGACTAGGGACGTGCTA | 1.78
GTCGGTCTCGGTATCGGGACGTGCTAG | 2.81
CCACTTTTATTTTCAGTATTGTGCTAG | 2.97
TCAGCTTTCCTTTATGTACTGTGCTAG | 4.82

Block 4
Target: RNA binding protein fox-1 homolog 2, RRM domain, GST-SBP tag (RBFOX2, Homo sapiens, UniProt O43251-10, residues 100-194)
Method: RNA Bind-n-Seq
Form: RNA
Sample: in vitro
Tested at: 365 nM
Setting: natural RNA segment, single round, ends assumed
Baseline: no-protein control
Reading: higher = stronger binding
Constant ends, left off below: GGGAGUUCUACAGUCCGACGAUC … UGGAAUUCUCGGGUGCCAA
Target sequence (chain): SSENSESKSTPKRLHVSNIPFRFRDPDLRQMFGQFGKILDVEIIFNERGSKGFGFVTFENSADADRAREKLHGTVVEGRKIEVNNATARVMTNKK
Sequence | RBNS enrichment (R)
CCAAACAGACGCUCACAGUGGAGGCUUAUCAAGGGUUGCAUUGGGGAAGAAGCCUCUCCCUCUCUGUCAGCACCAGCUGGUAAAGGUGACUGUACAGAUGUGCAUUUUCC | 1.19
ACUCACAUUCCUCAUUCCUAAGAAUUUGGAGCUAGCUGUUUGCCUUUGACUCCCUGACUUCAAGCCAGGGUUGUGCCUUACUGUCCCUUUUCUGGGCCUCAUUCUGCCAA | 0.173
UUAAUCCUCACAAUAGCCCUGUAAGGUUGCACCUAUUAUCUCCACUUUGACCACGAAGAAACGGAGACUCAGAGAGUUUGUAUCCUAUGUGUAAGAUCACACAGUUGUCA | 0.443
CAAGGUACAGGUUCAGUCCAGACUCUUUCCCCCUGGGACCAACAGCAGCCAGAGCAGUUAGCCAGUUAGUCCCCAGGCCUGUGGCCACAGGCGUUUCUGACCUGCUGGGC | 0.208
GAACCAGCAGCCGCUAGGCCAAUCCCUGGUGGUCGGUCUCCAUCCCGAUUCCUGCCUGCCCGCUUUGAGAGACCCGGUCACUUGCUUGUGGGCCCUCCCACUUGCCUCUG | 0.372
UUUAUAAGCAAAAACGUGCCGUUUAAACCACUGGAUCUAUCUAAAUGCCGAUUUGAGUUCGCGACACUAUGUACUGCGUUUUUCAUUCUUGUAUUUGACUAUUUAAUCCU | 0.454
GGGAAGUGACGGUUCUUAGAGGAGAAAAGCAAAAGGCUUGGGAGAUCCACAUGGCCUGUCCCCGUGAAGGCCAAAAAGCAUUUUCUCUCCAACUCCUUCUGGGAAGGUUG | 0.549
UAUGUUGGUCAGCGUCCACCUCCUAAGCUCAUAGGCAAAACUCACAGGUUAAAAUGGAAUUUAAUCUCAGAGAUCCUUUGUUCAAGAAUAUUUGAUUGCAUAUUUAGUUG | 0.66
GAAAGAUGCAUAGUUGGCUCUCACAUGCUAAAUGCCAGUAGCGCCCUCCUUCGCUUGAAGUCAUGACAACCACAGUCCCUACUAGACCUGUUCAUCUUUUUUUUUUUUUU | 0.766
CUGGCCUGCUCUUUGGUACCAGCUGUGACUUUUCAGUUUCUCCUGCUUUGAGGUUGUUCACGAAACUAGAAAUGUCAUUCCAGCUUGAUUGUUUUAUCAUCAGCCAAGUU | 0.823
ACUCCCAAACCCAGCACUCCAGACUCGAGGGAAGCCAGCUUCCAAGAACUGGAAUGCGUACGUCUUUUGUGCCACCUUGUACAAAGCCGGCUGCCCAGCCCCAGCCUCAC | 0.245
CCUCCAGGCGGGGCCCGGAAGUAGUAGUAGUAGUAGUAGUAGUAGUAGUAGUAGUAGUAGUAGUAGUUCCAUGUAGGGGCAGGAUCCUUUGGAAAAGUACCGUAUGUUCC | 0.547
